# Experimental data from different studies.
# Each numbered part is a random draw from the data of one study; scales do not carry over between parts.
# Chain of UniProt Q96Q40 (whole entry, looked up): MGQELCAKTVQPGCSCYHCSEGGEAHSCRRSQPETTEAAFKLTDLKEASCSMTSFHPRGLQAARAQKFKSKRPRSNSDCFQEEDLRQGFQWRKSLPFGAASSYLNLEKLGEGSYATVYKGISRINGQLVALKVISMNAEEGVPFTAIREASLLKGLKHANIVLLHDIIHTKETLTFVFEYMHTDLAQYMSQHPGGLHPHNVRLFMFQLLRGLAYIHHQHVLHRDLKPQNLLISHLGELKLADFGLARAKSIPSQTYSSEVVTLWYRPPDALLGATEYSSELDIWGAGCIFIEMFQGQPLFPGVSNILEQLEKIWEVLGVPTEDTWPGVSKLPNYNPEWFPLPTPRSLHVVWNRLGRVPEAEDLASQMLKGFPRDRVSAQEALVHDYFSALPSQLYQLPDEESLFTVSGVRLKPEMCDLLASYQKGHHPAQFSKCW
# Chain of UniProt O14730 (whole entry, looked up): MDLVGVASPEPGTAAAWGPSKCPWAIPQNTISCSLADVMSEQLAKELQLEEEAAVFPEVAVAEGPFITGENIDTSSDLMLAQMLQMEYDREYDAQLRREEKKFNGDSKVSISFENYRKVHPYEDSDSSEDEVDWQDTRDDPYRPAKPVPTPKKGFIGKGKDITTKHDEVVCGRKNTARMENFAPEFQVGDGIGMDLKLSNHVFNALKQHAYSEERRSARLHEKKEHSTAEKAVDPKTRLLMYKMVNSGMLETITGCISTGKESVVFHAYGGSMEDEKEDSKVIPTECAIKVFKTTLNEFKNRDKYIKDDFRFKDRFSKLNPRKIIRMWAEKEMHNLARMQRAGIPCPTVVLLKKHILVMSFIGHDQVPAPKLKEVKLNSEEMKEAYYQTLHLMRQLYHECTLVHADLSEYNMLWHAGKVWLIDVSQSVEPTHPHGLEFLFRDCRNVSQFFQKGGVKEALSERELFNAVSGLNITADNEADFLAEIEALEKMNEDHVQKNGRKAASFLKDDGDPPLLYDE
# Chain of UniProt Q9H422 (whole entry, looked up): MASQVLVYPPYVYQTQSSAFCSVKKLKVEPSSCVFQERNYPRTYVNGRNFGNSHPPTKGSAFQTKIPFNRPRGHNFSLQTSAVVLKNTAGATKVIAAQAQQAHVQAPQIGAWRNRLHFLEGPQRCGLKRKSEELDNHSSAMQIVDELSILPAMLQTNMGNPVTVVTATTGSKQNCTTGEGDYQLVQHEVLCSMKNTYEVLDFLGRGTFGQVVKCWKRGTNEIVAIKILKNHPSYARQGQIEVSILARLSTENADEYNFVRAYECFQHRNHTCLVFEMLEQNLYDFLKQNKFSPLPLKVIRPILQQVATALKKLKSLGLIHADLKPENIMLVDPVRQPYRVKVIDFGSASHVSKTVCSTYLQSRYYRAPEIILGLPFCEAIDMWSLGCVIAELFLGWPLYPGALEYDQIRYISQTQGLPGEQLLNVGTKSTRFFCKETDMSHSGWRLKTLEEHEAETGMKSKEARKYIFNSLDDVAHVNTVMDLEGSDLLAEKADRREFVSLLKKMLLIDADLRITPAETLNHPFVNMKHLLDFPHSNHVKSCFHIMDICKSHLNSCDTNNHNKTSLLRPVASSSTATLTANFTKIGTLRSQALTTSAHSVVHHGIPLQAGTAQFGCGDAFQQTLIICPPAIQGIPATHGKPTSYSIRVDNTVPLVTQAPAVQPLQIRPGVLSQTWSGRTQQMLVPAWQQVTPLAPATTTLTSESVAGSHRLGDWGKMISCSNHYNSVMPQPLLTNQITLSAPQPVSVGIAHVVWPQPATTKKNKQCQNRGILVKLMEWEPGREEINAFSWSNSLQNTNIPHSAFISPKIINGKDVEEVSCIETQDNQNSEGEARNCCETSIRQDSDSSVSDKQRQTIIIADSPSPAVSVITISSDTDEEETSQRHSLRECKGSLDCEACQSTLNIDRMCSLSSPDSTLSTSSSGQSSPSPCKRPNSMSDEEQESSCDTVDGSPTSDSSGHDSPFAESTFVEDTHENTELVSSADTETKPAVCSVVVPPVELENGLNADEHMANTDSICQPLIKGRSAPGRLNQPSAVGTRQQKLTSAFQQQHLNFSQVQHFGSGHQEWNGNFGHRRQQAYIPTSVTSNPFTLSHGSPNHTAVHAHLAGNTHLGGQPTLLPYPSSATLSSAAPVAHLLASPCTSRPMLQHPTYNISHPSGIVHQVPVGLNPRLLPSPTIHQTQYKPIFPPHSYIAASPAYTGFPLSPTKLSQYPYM

# Block 1
# Target: Vascular endothelial growth factor receptor 3 (FLT4, Homo sapiens, UniProt P35916)
# Chain of UniProt P35916 (whole entry, looked up): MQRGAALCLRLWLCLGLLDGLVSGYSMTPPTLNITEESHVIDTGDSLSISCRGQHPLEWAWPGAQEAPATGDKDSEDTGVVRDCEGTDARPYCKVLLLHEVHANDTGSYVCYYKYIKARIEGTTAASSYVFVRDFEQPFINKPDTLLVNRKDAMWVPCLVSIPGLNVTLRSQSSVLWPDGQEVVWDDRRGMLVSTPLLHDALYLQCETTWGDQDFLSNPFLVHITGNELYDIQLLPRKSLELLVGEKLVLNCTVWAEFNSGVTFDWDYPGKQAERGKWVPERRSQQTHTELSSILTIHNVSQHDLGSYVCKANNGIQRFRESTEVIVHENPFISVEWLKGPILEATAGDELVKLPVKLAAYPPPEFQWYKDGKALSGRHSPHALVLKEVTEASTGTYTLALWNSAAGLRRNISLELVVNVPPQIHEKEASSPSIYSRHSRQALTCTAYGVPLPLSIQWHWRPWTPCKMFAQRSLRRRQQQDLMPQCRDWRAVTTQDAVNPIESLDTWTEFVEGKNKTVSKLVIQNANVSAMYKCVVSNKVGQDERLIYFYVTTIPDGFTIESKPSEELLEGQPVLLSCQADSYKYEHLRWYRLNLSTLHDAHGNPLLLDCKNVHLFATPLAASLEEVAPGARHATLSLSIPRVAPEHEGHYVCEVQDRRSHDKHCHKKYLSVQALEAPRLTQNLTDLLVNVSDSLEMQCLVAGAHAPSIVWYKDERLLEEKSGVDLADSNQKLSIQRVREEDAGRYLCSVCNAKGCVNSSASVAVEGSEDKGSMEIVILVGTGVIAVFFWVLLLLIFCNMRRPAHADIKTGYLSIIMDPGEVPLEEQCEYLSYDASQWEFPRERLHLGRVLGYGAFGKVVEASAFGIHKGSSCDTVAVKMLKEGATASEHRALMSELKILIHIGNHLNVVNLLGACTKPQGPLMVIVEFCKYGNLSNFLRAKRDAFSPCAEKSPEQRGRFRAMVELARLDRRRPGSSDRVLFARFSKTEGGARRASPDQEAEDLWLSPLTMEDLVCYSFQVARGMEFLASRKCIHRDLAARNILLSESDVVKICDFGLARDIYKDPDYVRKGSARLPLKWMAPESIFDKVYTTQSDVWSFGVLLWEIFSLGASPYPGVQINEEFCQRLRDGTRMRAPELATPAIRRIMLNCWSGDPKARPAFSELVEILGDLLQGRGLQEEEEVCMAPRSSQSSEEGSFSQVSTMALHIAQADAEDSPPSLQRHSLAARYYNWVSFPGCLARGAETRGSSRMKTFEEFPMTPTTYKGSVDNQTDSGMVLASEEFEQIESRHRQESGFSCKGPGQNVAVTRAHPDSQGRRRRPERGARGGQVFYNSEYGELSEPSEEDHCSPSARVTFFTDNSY
# Effect on: enzyme activity
# Action: inhibitor
# Tested at: 0.5 µM
# Relative to: control
Compound,remaining activity [%]
CNc1cc2c(Nc3cccc(Br)c3)ncnc2cn1,97
c1cc(-c2cnn3cc(-c4ccc(OCCN5CCCCC5)cc4)cnc23)ccn1,16.3
O=C1c2ccccc2-c2nc3nnnn3nc21,5.79
O=C1NC(=O)/C(=C/c2ccc3c(c2)OC(F)(F)O3)S1,107
O=C(c1ccccc1)c1ccc(N2CCOCC2)cc1O,112
NC(=O)c1cccc(-c2cc(Nc3ccc(OC(F)(F)F)cc3)ncn2)c1,98.5
O=c1c(-c2ccc(F)cc2)c(-c2ccncc2)[nH]n1-c1ccc(Cl)cc1,91.5
N#C/C(=C(/N)SC1C=CC=CC1)c1cccc(C(O)c2ccncc2)c1 (centres unmarked),99.9
CCN(CC)CCCCN1c2ccccc2Oc2ccc(Cl)cc21,98.8
NC(=O)c1ccc(-c2nc(-c3ccc4c(c3)OCCO4)c(-c3ccccn3)[nH]2)cc1,103
C[C@@H](N)[C@H]1CC[C@H](C(=O)Nc2ccncc2)CC1,105

# Block 2
# Structure (SMILES): C[C@@]1(Cc2ccc(C#N)cc2)C(=O)N(c2cc(Cl)cc(Cl)c2)c2ncc(C(=O)NC3(c4nc(C5CCC5)no4)CC3)n21
# Effect on: cell-free assay
# Technique: competition with immobilised ligand
# Tested at: 1 µM
target,remaining binding [%]
"FLT3 (Homo sapiens, UniProt P36888, D835Y)",100
"CDK15 (Homo sapiens, UniProt Q96Q40)",97
"RIOK3 (Homo sapiens, UniProt O14730)",100
"HIPK3 (Homo sapiens, UniProt Q9H422)",100

# Block 3
# Target: RNA binding protein fox-1 homolog 2, RRM domain, GST-SBP tag (RBFOX2, Homo sapiens, UniProt O43251-10, residues 100-194)
# Technique: RNA Bind-n-Seq
# Form: RNA
# Sample: in vitro
# Tested at: 365 nM
# Notes: natural RNA segment, single round, ends assumed
# Relative to: no-protein control
# Direction: higher = stronger binding
# Shared flanks, not repeated: GGGAGUUCUACAGUCCGACGAUC … UGGAAUUCUCGGGUGCCAA
# Residues (chain): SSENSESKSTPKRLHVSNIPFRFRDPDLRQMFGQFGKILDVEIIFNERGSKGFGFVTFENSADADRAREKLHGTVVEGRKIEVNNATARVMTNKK
Sequence,RBNS enrichment (R)
CGAGAGGGCAUAUGGGGCCCUGCCAACACCACUUCCUCAGCAGAAACCCGUCAUGACGCGGCUGCUUCGGAAGCAGACAUCUGGGGACACAGCCUCAGUACCCAGUCUUU,0.342
CAGGCCUUAGAGCCGAGGGAGACUAUUAGGCAGCAGGCCAAACCACUCUGGCCCUGGAGCCGCCUUUGUUAACAGCAACAAGAAUGCUGCAGUGCUACAACGUGCUGGAA,0.423
CCUAUAUUACUCUCCUGGGAUCUGAGUUUCUGCAGGUCAUUUGUAUGUAGGACCAGGAGUAUCUCCUCAGGUGACCAGUUUUGGGGACCCGUAUGUGGCAAAUUCUAAGC,1.4
CAGGUGCUGCCCUUGCUGCUGCUGGUCGGGCACCCAAGUGCGUGAGGGGCUUCAGCCUGUCCCGGGGUUGCCUGAGGCAGAGCAAGACGGGUUCUCACCCCUGACUUCUG,0.255
ACUUUCUUCACCCUGGGUCUGUUUCAAGCCGGCCAGAGAGCCUUUCCAAAGAGGAAUGAGGCCCAGGCCUUGGCUAUACGUACUUCCUGCCCCUGGCCAUCCUUGUUGGA,0.199
UCUGCUAUCCCCAUGGCCAUGAAGGCUCCCUACCCCCAGAUGCCCACUCUCUCCACCUUUAUUUGCUUCUGAGUUCUUGUUUUUGAGCAAUAAACAGAAAGUCACCACUU,0.69
UGCUGCAGCCGGGGUUCUAUGGCAAGUGCCAGUUGCAGGGCUAACCUUGUGCAACGUUCCCCAACACUUCCACAUACAGAAAUUAUUUUCACUCUAUCCCUGCUUCAGUU,0.415
AAGGAGGGUUUCAAAGAAAAAGGAUUUUGUUUAAAAUACUUUAAAAAUGUUAUUUCCUGCAUCCCUUGGCUGUGAUGCCCCUCUCCCGAUUUCCCAGGGGCUCUGGGAGG,0.332

# Further values, each from its own experiment
# Technique: cross-linking MS
Substance,partner,test system,conditions,measurement,result
"SRSF1 (Homo sapiens, UniProt Q07955)","SRSF4 (Homo sapiens, UniProt Q08170)",cell fractions,together with: DSSO,cross-linked residues,K165 to K95
"ATP5F1D (Homo sapiens, UniProt P30049)","ATP5MK (Homo sapiens, UniProt Q96IX5)",,hits only,interaction screen,cross-linked
"USO1 (Homo sapiens, UniProt O60763)","DNAH2 (Homo sapiens, UniProt Q9P225)",cell fractions,together with: DHSO,cross-linked residues,D783 to D3109
